Measured values of several laboratories.
Protocols differ between the studies behind these lines. Several values in a cell are separate wells, animals, samples, runs or records. Numbers after ± are the reported error.

Compound	target or system	test	system	setting	how to read	endpoint	value
Cc1cn(-c2cc(NC(=O)c3ccc(C)c(Nc4nccc(-c5cccnc5)n4)c3)cc(C(F)(F)F)c2)cn1			human patients	dose not given, 12 months vs baseline, unit not given	baseline: placebo	ADAS-Cog maze time change	1.65
CC[C@H](C)[C@@H]1NC(=O)[C@@H]2CCCN2C(=O)[C@H](CC(C)C)NC(=O)[C@H](CC(C)C)NC(=O)CNC(=O)[C@@H](NC(=O)[C@@H](NC(=O)[C@H](CC(=O)O)NC(=O)CNC(=O)[C@@H](NC(=O)[C@H](C)NC(=O)CNC(=O)[C@H](CCCCN)NC(=O)[C@H](CC(C)C)NC(=O)[C@H](CC(C)C)NC(=O)[C@H](CCCCN)NC(=O)CNC(=O)[C@@H](NC(=O)[C@@H](N)CC(C)C)C(C)C)C(C)C)C(C)C)CSSC[C@@H](C(=O)O)NC1=O		RNA-seq, item: Fam19a3	mouse, traumatic brain injury model, frontal cortex and hippocampus	dose not given	baseline: TBI alone	log2 fold change	-2.57
COc1ncc(-c2nc3c(n2C(C)C)[C@H](c2ccc(Cl)cc2)N(c2cc(Cl)cn(C)c2=O)C3=O)c(OC)n1		antileukemic activity, item: treatment failure, resistant disease	human, acute myeloid leukaemia	20 to 30 mg, low-dose		best overall response	57.1%
COCC(=O)O[C@]1(CCN(C)CCCc2nc3ccccc3[nH]2)CCc2cc(F)ccc2[C@@H]1C(C)C	Plasmodium falciparum		7G8			IC50	2000 nM
C[C@H]1O[C@@H](O[C@H]2CC[C@@]3(C)[C@@H](CC[C@]4(C)[C@@H]3C=C[C@]35OC[C@@]6(CCC(C)(C)C[C@H]63)[C@@H](O)C[C@]54C)[C@]2(C)CO)[C@H](O)[C@@H](O[C@@H]2O[C@H](CO)[C@@H](O)[C@H](O)[C@H]2O)[C@H]1O			Mus musculus, pair-fed, AAV8-TBG-SIRT1 shRNA hepatic SIRT1 knockdown, plasma	oral, high dose, 5 h		total cholesterol	2.6 mM and 2.77 mM and 2.59 mM and 2.48 mM and 2.29 mM
CCCN(CCC)[C@H]1CCc2c(F)ccc(O)c2C1	Plasmodium falciparum		D10			IC50	2510 nM
Cc1nc(Nc2ccc(CC(=O)O)cc2)nc(Nc2ccc(F)c(C(F)(F)F)c2)c1C			C57BL/6J mouse, high-fat diet MASH model	intraperitoneal, 0.3 mg/kg daily, 60% fat diet for 12 weeks, dosed final four weeks	baseline: untreated	inguinal white adipose weight	decreased
C[C@]1(CO)Cc2ncn(-c3ccc(C#N)c(Cl)c3)c2C(=O)O1		aldosterone synthesis, inhibitor, item: sodium	healthy Japanese adults, urine	40 mg, 0-24 h after first dose, multiple rising dose		urinary excretion	143 mmol
CC1=C(O)C(=O)C=C2C1=CC=C1[C@@]2(C)CC[C@@]2(C)[C@@H]3C[C@](C)(C(=O)O)CC[C@]3(C)CC[C@]12C		video-EEG	Sprague-Dawley rat pups, multiple-hit infantile spasms model	i.p., 2 mg/kg, 2 to 4 h, CELA-2 arm	baseline: vehicle	spasm frequency	decreased
O=S(=O)(NCCNC/C=C/c1ccc(Br)cc1)c1cccc2cnccc12			mouse zygotes	20 µM, 72 h post-hCG		embryos reaching 4-cell	26.3%
O=C(c1ccc(C#Cc2cccc(F)c2)nc1)N1CCC(O)CC1			rat hippocampal CA3 slices	10 µM, 10 min, spontaneous epileptiform activity	baseline: baseline	population spike amplitude	99.4 ± 3.9%

Excerpt of the above:
Compound	target or system	test	system	setting	how to read	endpoint	value
CCCN(CCC)[C@H]1CCc2c(F)ccc(O)c2C1	Plasmodium falciparum		D10			IC50	2510 nM
